Measured values collected from several papers.
Every numbered part comes from another study and shows a few of its results, in no order. Changes are numbered by the printed parent chain.
UniProt Q9ZTX9, sequence (whole entry, looked up): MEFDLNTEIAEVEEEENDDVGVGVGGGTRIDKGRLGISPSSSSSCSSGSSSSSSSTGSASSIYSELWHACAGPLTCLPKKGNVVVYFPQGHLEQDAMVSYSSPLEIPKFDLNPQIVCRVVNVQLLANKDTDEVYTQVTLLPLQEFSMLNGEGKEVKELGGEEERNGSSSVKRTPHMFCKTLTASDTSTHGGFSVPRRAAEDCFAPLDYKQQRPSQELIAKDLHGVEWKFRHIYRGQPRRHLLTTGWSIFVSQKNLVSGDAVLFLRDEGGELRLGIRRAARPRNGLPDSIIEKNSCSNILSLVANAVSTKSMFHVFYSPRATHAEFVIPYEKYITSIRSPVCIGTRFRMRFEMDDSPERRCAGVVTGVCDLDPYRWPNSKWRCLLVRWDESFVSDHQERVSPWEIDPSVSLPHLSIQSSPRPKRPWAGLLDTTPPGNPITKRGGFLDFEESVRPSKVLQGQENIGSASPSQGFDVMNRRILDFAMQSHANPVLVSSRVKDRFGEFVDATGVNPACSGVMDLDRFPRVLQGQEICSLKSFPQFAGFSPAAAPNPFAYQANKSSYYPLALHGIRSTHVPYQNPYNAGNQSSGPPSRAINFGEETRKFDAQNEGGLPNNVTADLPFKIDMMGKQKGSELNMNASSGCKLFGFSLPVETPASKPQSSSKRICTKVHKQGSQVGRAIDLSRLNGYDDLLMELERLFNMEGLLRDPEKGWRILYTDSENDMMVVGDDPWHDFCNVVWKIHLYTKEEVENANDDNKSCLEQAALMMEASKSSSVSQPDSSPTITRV
UniProt Q9XED8, sequence (whole entry, looked up): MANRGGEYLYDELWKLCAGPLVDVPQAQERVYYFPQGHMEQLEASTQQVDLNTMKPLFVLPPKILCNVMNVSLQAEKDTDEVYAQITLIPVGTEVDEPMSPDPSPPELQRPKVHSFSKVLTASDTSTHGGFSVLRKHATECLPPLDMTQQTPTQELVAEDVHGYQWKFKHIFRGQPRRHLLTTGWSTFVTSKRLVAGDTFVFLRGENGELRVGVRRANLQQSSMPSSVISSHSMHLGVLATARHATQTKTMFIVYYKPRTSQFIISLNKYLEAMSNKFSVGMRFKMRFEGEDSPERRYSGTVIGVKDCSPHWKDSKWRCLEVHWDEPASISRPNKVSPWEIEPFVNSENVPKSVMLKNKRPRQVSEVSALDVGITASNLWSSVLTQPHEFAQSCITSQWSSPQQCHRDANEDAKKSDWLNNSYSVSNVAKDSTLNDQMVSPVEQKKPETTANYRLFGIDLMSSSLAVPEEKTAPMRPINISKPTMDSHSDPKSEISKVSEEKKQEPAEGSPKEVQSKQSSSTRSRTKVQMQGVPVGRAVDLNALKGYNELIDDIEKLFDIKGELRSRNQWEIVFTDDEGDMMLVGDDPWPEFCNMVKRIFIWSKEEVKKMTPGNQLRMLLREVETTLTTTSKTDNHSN
UniProt O23661, sequence (whole entry, looked up): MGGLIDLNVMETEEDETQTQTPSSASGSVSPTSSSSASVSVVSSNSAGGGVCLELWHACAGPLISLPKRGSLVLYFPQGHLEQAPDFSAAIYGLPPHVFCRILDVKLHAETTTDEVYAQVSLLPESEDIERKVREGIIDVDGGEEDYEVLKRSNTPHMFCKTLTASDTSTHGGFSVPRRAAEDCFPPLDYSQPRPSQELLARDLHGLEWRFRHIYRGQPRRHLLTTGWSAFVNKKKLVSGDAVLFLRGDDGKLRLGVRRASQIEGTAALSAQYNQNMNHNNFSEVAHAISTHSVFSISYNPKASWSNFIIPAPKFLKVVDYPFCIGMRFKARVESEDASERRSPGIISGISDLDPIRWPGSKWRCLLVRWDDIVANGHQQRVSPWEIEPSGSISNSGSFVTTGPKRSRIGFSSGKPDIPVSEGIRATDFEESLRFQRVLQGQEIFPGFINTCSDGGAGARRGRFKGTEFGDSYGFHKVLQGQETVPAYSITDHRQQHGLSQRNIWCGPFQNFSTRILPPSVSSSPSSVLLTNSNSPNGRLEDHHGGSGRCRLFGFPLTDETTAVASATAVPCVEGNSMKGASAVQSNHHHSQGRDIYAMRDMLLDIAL
UniProt Q8H174, sequence (whole entry, looked up): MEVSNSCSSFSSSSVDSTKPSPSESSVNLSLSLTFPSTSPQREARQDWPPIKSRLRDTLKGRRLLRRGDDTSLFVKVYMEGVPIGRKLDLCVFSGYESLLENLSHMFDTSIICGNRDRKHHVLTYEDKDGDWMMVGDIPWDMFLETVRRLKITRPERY
UniProt Q9C5X0, sequence (whole entry, looked up): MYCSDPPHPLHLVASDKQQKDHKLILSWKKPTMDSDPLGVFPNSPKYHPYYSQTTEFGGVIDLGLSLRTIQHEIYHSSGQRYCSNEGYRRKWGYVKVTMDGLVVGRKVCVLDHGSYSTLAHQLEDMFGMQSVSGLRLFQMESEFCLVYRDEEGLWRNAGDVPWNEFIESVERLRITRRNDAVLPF
UniProt Q93YR9, sequence (whole entry, looked up): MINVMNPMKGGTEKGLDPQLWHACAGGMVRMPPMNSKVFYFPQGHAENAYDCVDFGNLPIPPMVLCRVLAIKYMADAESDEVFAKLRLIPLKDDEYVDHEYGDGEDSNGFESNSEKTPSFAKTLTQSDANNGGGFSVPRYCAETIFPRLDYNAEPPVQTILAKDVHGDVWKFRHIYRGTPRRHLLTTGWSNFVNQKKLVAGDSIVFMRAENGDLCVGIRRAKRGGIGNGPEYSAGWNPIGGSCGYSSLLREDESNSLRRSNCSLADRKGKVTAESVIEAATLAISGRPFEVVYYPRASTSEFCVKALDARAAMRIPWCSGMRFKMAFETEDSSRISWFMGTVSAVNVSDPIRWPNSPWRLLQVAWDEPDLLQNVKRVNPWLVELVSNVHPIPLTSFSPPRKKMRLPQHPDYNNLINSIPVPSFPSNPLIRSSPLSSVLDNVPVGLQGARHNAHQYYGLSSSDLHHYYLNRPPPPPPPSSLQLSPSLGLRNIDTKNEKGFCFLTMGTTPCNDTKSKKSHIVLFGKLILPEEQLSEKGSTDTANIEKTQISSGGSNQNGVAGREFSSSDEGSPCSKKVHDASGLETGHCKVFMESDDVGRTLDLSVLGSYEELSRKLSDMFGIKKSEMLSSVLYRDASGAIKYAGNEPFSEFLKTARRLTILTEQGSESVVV
UniProt Q9LQE8, sequence (whole entry, looked up): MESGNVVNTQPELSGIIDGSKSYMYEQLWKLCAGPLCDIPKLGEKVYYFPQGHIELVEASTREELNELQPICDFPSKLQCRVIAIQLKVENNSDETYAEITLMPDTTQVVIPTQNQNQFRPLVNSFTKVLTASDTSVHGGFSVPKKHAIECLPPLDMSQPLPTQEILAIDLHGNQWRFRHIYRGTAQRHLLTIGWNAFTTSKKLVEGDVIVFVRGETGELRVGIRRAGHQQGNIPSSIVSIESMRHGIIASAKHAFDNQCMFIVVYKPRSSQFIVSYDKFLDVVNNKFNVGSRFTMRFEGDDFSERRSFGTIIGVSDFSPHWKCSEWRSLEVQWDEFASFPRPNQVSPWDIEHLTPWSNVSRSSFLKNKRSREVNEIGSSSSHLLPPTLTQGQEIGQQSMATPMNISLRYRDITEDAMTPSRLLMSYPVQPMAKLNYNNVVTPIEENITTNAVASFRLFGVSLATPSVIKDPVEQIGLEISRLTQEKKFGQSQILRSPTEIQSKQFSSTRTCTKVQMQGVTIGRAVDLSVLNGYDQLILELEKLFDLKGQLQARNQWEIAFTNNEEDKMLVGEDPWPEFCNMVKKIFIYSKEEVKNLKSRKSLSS

Series 1 — Molecule: B1 (IAA30); technique: two-hybrid; notes: weak activation fusion; reading: higher = firmer interaction
B1: IAA30 (Arabidopsis thaliana, UniProt Q9M1R4); chain MGRGRSSSSSSIESSCKSNPFGVSSSNTRNLSTDLRLGLSFGSSSGQYYNGGDNHEYDGVGAAEEMMIMEEEEQNECNSVGSFYVKVNMEGVPIGRKIDLLSLNGYHDLITTLDYMFNASILWAEEEDMCSEKSHVLTYADKEGDWMMVGDVPWEMFLSSVRRLKISRAYHY
partner	relative to	positive tests
ETT (Arabidopsis thaliana, UniProt O23661)	out of 4 tests	0
IAA31 (Arabidopsis thaliana, UniProt Q8H174)	out of 4 tests	1
ARF14 497-605 (Arabidopsis thaliana, UniProt Q9LQE8)	out of 2 tests	0
ARF9 519-638 (Arabidopsis thaliana, UniProt Q9XED8)	out of 4 tests	2
ARF16 570-670 (Arabidopsis thaliana, UniProt Q93YR9)	out of 4 tests	0
ARF4 660-788 (Arabidopsis thaliana, UniProt Q9ZTX9)	out of 4 tests	0
IAA34 (Arabidopsis thaliana, UniProt Q9C5X0)	out of 4 tests	2

Series 2 — technique: RNA Bind-n-Seq; molecule type: RNA; matrix: in vitro; concentration: not given; relative to: input RNA pool; reading: higher = stronger binding
Target: RING finger protein unkempt homolog, zinc fingers 1-6, GST-SBP tag (UNK, Homo sapiens, UniProt Q9C0B0, residues 30-357)
Notes: RNA with constant flanks, human and mouse sites, ends assumed
Constant ends, left off below: GGGAGUUCUACAGUCCGACGAUC … CAACAGAGGAUUGAGCAUCA
Residues (chain): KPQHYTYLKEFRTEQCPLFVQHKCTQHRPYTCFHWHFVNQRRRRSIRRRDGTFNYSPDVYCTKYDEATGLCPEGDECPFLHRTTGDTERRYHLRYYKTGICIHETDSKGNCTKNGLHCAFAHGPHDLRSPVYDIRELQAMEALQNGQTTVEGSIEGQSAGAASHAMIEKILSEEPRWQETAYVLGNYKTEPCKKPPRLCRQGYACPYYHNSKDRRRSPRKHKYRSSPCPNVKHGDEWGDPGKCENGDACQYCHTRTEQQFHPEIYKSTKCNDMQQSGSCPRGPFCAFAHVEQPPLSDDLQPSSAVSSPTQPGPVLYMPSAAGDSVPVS
Strand	bound/input enrichment [ratio]
GAGGGCAGGGCUCACAGACUCCAAAAGCUGACAAAGUCCCAUCACUUACACAAACAGUGAUUUAGAACAACUUCGAAAAAUCAGGCGGCGAAGUCCCCACGAUGACACCGAGUCCUUUAC	0.325
CGCCUGCCGGCAGAAUGUCCCUGGCUGCUUAUUGCGUCAUCUGUUGCAGAAGAAUAGGAACCUCUACUUCCCCACCAAAAAGUGGCACACACUGGAGAGAUAUCAGAAAUAUAAUAAAGU	0.286
UGGUUCUGGGUUGUUCGUGGUAGUGCCGGUUACAGCUCGUCACUCGGCCUCACGACCGGGAGCCGUGAGGCACCAUGCCCGCGGUGCUGGGGUUCGAAGGCAGCGCCAACAAGAUCGGCG	0.0775
UCUUCACUAACCUAUUUUUAUUCAACACAGGCCCUUGCUCCCUCUGUGUCCUUGUGGAUUGCUUUACACGCCACCUUAUUGAUGGGUCAUCUUGCCAGGACUCCGGGCAAGGCUUUUCUA	0.937
CUUCCUCUGCCCCCUAUUGAGAUUCCAGCUGUAUUCUCGGGGAACACCUCCCCCAAAGUGGCAGUUGUUAAUCCUCAGCCACAGCUAUGGUCUAAAACAUCAGUGAAGAAGGCCCCCCCA	0.402
GCGGUCCCUACAGUCCUGGUGACUCCCUUAGGUGCCCUUGGAGUACCGUUUGGGUCCAUUUUAGCUUCUUACCUUCUGAAGGAAAAGCUCAACAUCUUGGGCAAGUUGGGCUGUCUGCUA	1.65
AACCAAGGCAUUGCUCCUGUCCAAGUCUGUACUAAUCUCUUGAUCAAGCAGGUGAUUGAAGUAGCUUGUGGUUCACAUCAUUCGAUGGCUUUAGCAGCUGAUGGAGAGUUAUUUGCUUGG	0.11
AAUGCAGUAGAGGCCAUUCAUAGAGCUGUGGAAUUCAAUCCUCAUGUGCCAAAAUACCUACUAGAAAUGAAAAGCUUAAUCCUACCCCCAGAACAUAUCCUGAAGAGAGGAGACAGUGAA	2.09
AAUGAGUCUUUGGCCUCAGAGCCUCUCAAAGUGUCCACUUCAAGGGGGGAUCAUCCUCAUUAGCACACAGAUUUUUAAAAAUCAAUUCUCUUGCCAUGCCUCCUAUGUGUUCACAUCUCU	0.785
UUUGCACAUUCGUCACCUCUGGAACGAGGUGGCAUUCACUCCAACCUGUGCUCUAGCCCUCUUAAUUCUAGAGCAGUGGAAGACUUCUCAUCAAGGAUGGAUCCCUGCAGCUAUGCCAUG	0.161
CCUCCAAGAAAAAAUCCAGUAACUUCAAGUACUUCAGUAUUGCAUUCUAGUCCUCUUAAUGUUUUUAUGGGAUCUCCAGGGAAAGAGGAAAAUGAAAACCGUGAUCUAACAGCUGAGUCU	0.29

Series 3 — technique: DHFR PCA, deep sequencing; matrix: yeast; added: (+)-ABA 0.0091 µM; relative to: wild-type fitted maximum; reading: higher = stronger binding
Target: ABI1, truncated, D143A, DHFR fusion (Arabidopsis thaliana)
Notes: methotrexate growth selection, single substitutions
Starting sequence: PYL1, truncated, DHFR fusion (Arabidopsis thaliana); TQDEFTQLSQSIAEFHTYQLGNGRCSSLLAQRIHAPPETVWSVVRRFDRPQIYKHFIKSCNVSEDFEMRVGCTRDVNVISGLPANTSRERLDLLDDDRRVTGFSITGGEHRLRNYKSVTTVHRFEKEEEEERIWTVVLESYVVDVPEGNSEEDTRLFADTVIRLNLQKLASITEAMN; partner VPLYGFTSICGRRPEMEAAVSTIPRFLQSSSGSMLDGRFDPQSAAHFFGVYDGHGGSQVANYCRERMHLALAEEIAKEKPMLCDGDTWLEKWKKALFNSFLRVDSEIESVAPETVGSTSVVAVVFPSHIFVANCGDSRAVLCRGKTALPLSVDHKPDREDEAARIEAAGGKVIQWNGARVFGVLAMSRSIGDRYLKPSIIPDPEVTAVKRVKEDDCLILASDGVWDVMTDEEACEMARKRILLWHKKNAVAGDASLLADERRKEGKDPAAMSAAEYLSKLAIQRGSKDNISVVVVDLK
Change	relative binding score [%]
R132G	62.2
F56V	-1.89
L112S	-2.17
N85Q	56.6
S9A	34.6
C72M	23.3
E4F	11.3
G107M	-0.158
S87P	12
V40D	-1.92
I33W	-3.41

Mixed results
Molecule	target	test	system	setting	scale	quantity	result
PhoQ, residues 284 288 289 292 302 303 ASVMEA	PhoP, residues 12 14 15 18 19 LHHSG (Escherichia coli, UniProt P23836)	Sort-seq, refers to: YFP reporter	E. coli	PhoQ-PhoP variant library, added: 10 µM Mg2+	relative to: high Mg2+ state, higher = stronger signaling	fold induction	29.1

Repeated from above (series 1):
partner	relative to	positive tests
ARF16 570-670 (Arabidopsis thaliana, UniProt Q93YR9)	out of 4 tests	0
ARF4 660-788 (Arabidopsis thaliana, UniProt Q9ZTX9)	out of 4 tests	0
IAA34 (Arabidopsis thaliana, UniProt Q9C5X0)	out of 4 tests	2
